# Measurements of several laboratories.
# Lines come from different studies, so protocols differ. ± gives the spread as reported.
Compound,test,test system,setting,scale,Cmax
CN1CC[C@H](c2c(O)cc(O)c3c(=O)cc(-c4ccccc4Cl)oc23)[C@H](O)C1,,"human patients, phase I, plasma","intravenous, 50 mg/m^2, lowest of range",,2220 nM
CN(C)C(=N)N=C(N)N,,"human, both sexes, plasma","oral, dose not given",,2120 ± 548 ng/mL
CCOc1cc([C@@H](CS(C)(=O)=O)N2C(=O)c3cccc(NC(C)=O)c3C2=O)ccc1O[C@@H]1O[C@H](C(=O)O)[C@@H](O)[C@H](O)[C@H]1O,,"healthy human controls, plasma","oral, 30 mg apremilast, matched to severe impairment",,198 ng/mL
O=C(CCCCCCC(=O)Nc1ccccc1)NO,LC-MS/MS,"human, serum","oral, 200 mg, day 1, first dose median",,161 ng/mL
CC#CC(=O)NCCCC(=O)c1nc(-c2ccc(C(=O)Nc3ccccn3)cc2)c2c(N)nccn12,,"human, severe hepatic impairment, plasma","oral, 50 mg acalabrutinib, single, total, geometric mean",,169 ng/mL
N[C@@H](Cc1ccc(O)c(O)c1)C(=O)O,,"human, plasma","oral, 100 mg, mean, recalculated per dose, added: decarboxylase inhibitor",,1210 ± 449 ng/mL
Cc1nc2c(F)cc(-c3nc(Nc4ccc(CN5CCNCC5)cn4)ncc3F)cc2n1C(C)C,,"human patients, plasma","oral, 150 mg, single dose, geometric mean",,26.8 ng/mL
CCCOc1ccc(S(=O)(=O)NCCC2CCCN2C)cc1-c1nc2c(CCC)nn(C)c2c(=O)[nH]1 (stereo not drawn),,"healthy male humans, plasma","oral, 200 mg, added: dapoxetine 60 mg",,596 ± 147 ng/mL
CN(Cc1cnc2nc(N)nc(N)c2n1)c1ccc(C(=O)N[C@@H](CCC(=O)O)C(=O)O)cc1,,"human, both sexes, plasma","oral, 20 mg, day 1, alone, arithmetic mean",,607 ng/mL
O=C(CCCCCCC(=O)Nc1ccccc1)NO,,"human, cycle 1 day 12, steady state, plasma","oral, 400 mg, added: bortezomib",,323 ± 307 ng/mL
O=C(CCCCCCC(=O)Nc1ccccc1)NO,,"human, serum","oral, 100 mg three times daily, 14 days, added: idarubicin",,554 nM
Cc1[nH]c(/C=C2\C(=O)Nc3ccccc32)c(C)c1CCC(=O)O,,human patients,"oral, 500 mg/m^2 twice daily, after meal, dose 55",,9360 ± 5720 ng/mL
CNCc1ccc(-c2[nH]c3cc(F)cc4c3c2CCNC4=O)cc1,,"human patients, plasma","oral, 40 mg once daily, day 15, steady state, arithmetic mean",,138 ng/mL
COc1c(N2C[C@@H]3CCCN[C@@H]3C2)c(F)cc2c(=O)c(C(=O)O)cn(C3CC3)c12,,human,"oral, 400 mg single dose, geometric mean",,1960 ng/mL
CC1(COc2ccc3c(c2)ncn3-c2ccc3cccc(N4CCC(N)CC4)c3n2)COC1,,human,"oral, 100 mg/m2, first dose, crushed in applesauce",baseline: whole tablets,no effect
O=S(=O)(c1cccc2cnccc12)N1CCCNCC1,,"human, plasma","oral, 30 mg",,1.41 ng/mL
CCc1cc2c(cc1N1CCC(N3CCOCC3)CC1)C(C)(C)c1[nH]c3cc(C#N)ccc3c1C2=O,"LC-MS, noncompartmental","human patients under sample A years, plasma","oral, 600 mg/day, cycle 1 day 1, geometric mean",,84.2 ng/mL
CNCc1ccc(-c2[nH]c3cc(F)cc4c3c2CCNC4=O)cc1,,"human cancer patients, plasma","intravenous, 8 mg/m2, day 1, added: temozolomide 100",,473 ng/mL
Cc1ccc(NC(=O)c2ccc(CN3CCN(C)CC3)cc2)cc1Nc1nccc(-c2cncc(-c3oncc3C)c2)n1,,"older healthy human adults, plasma","oral, 125 mg single dose, fed, mean",,5290 ng/mL
C=CC(=O)Nc1cc(Nc2ncc(C(=O)OC(C)C)c(-c3cn(C)c4ccccc34)n2)c(OC)cc1N(C)CCN(C)C,,"human, fasted","oral, 40 mg single dose, geometric mean",,7.9 ng/mL
NS(=O)(=O)OC[C@@H]1C[C@@H](n2ccc3c(N[C@H]4CCc5ccccc54)ncnc32)C[C@@H]1O,,human,"intravenous, 20 mg/m^2 single dose, day 1",,178 ng/mL
COc1cc2nccc(Oc3ccc(NC(=O)NC4CC4)c(Cl)c3)c2cc1C(N)=O,,"human, plasma","oral, 5 mg, geometric mean, added: placebo",,43.7 ng/mL
CCOc1ccc(Cc2cc([C@]34OC[C@](CO)(O3)[C@@H](O)[C@H](O)[C@H]4O)ccc2Cl)cc1,,"human, plasma","oral, 0.5 to 300 mg, pooled data",,6.1 to 5160 ng/mL
CS(=O)(=O)OC[C@H](O)[C@@H](O)COS(C)(=O)=O,,"human patients, plasma","intravenous infusion, 14 g/m^2, day -6, 2-hour infusion",,470000 ng/mL
CC(=O)c1c(C)c2cnc(Nc3ccc(N4CCNCC4)cn3)nc2n(C2CCCC2)c1=O,,"human patients, plasma","oral, 50 mg/m^2 repeated doses, day 21",,90 ± 62 ng/mL
Cc1nc(-c2ccc(OCC(C)C)c(C#N)c2)sc1C(=O)O,,"human, plasma","oral, 40 mg, added: verinurad 20 mg",,688 ng/mL
NC(=O)N1CCC(CC(=O)N2CCC([C@H]3c4ncc(Br)cc4CCc4cc(Cl)cc(Br)c43)CC2)CC1,,"human, plasma","oral, 200 mg twice daily, cycle 1 day 15, added: gemcitabine 600 mg/m2",,2040 ng/mL
CC(C)[C@H](C(=O)Nc1ccc(C(=O)NO)cc1)c1ccccc1,,"human, plasma","oral, 30 to 80 mg, individual values",,540 to 3250 nM
COc1ccnc(C[S+]([O-])c2nc3ccc(OC(F)F)cc3[nH]2)c1OC (stereo not drawn),,"human, CYP2C19 normal metabolizers, plasma","oral, 40 mg/day, day 1",,4570 ± 2870 ng/mL
CN(Cc1cnc2nc(N)nc(N)c2n1)c1ccc(C(=O)N[C@@H](CCC(=O)O)C(=O)O)cc1,,"human, plasma","oral, dose not given, day 8, mean, added: isavuconazole co-administration",,140 ng/mL
O=CC[C@@H](O)[C@H](O)[C@H](O)CO,HPLC-fluorescence,"human patients, plasma","oral, 60 mg/kg/day, cycle 2",,606000 ± 277000 nM
CCC(C)n1ncn(-c2ccc(N3CCN(c4ccc(OCC5COC(Cn6cncn6)(c6ccc(Cl)cc6Cl)O5)cc4)CC3)cc2)c1=O (stereo not drawn),,"human male, plasma","oral, 200 mg, day 3, geometric mean",,390 ng/mL
O=C(/C=C/c1cccc(S(=O)(=O)Nc2ccccc2)c1)NO,,"human mild liver dysfunction, plasma","intravenous, 400 mg/m^2, 30 min infusion, cycle 1 day -7",,26600 ng/mL
CC(C)(C(=O)NCC(F)(F)C(F)(F)F)C(=O)N[C@@H]1C(=O)Nc2ccccc2-c2ccccc21,,"human, plasma","oral, 5 mg, day 1",,129 ng/mL
Cc1ccc(NC(=O)c2ccc(CN3CCNCC3)cc2)cc1Nc1nccc(-c2cccnc2)n1,,"human patients, plasma","oral, 400 mg/day of imatinib, day 10 of cycle 1",,521 ng/mL
Nc1ccc(-c2nc([C@H]3CCc4cc(-c5cc(Cl)ccc5-n5cnnn5)cc(=O)n43)c(F)[nH]2)c(F)n1,,"human, plasma","oral, 250 mg once daily, fed, day 14",,3700 ng/mL
CS(=O)(=O)n1cc2c(n1)CN([C@H]1CO[C@H](c3cc(F)ccc3F)[C@@H](N)C1)C2,,"healthy male human, plasma","oral, 50 mg once weekly, day 1, fasted, geometric mean",,988 nM
CC1(C)CCC(CN2CCN(c3ccc(C(=O)NS(=O)(=O)c4ccc(NCC5CCOCC5)c([N+](=O)[O-])c4)c(Oc4cnc5[nH]ccc5c4)c3)CC2)=C(c2ccc(Cl)cc2)C1,,"human, plasma","oral, 600 mg, steady state, added: idasanutlin 200 mg",,1150 ng/mL
CC(C)(Sc1ccncc1-c1ccc(C#N)c2ccccc12)C(=O)O,,"human, plasma","oral, 15 mg, added: febuxostat 80 mg",,20.4 ng/mL
Cc1[nH]c2ccccc2c1CCNCc1ccc(/C=C/C(=O)NO)cc1,,human,"20 mg, day 8, added: IM 400 mg",,16.6 ng/mL
CC(C)(/C=C(\C#N)C(=O)N1CCC[C@@H](n2nc(-c3ccc(Oc4ccccc4)cc3F)c3c(N)ncnc32)C1)N1CCN(C2COC2)CC1,,"human, plasma","oral, 100 mg single dose, mean",,34 ng/mL
CN(C)Cc1c(C(=O)NCCOc2ccc(C(=O)NO)cc2)oc2ccccc12,,"human, plasma","oral, 60 mg, single dose on day -3",,89.8 ± 22.3 ng/mL
Cc1nc(-c2ccc(OCC(C)C)c(C#N)c2)sc1C(=O)O,,"human male, plasma","oral, 40 mg once daily, day 7 or 21, geometric mean",,736 ng/mL
COc1ccc(-n2nc(C(N)=O)c3c2C(=O)N(c2ccc(N4CCCCC4=O)cc2)CC3)cc1,,"human male and female, plasma","oral, 10 mg, geometric least squares mean, added: cyclosporine 100 mg daily for 3 days",,257 ng/mL
COC(=O)C(c1ccccc1Cl)N1CCC(S)C(=CC(=O)O)C1 (stereo not drawn),,"human patients, CYP3A4 wt/wt, plasma","oral, 75 mg clopidogrel daily, day 7, median",,5.15 ng/mL
COc1ccc2nc([S@@+]([O-])Cc3ncc(C)c(OC)c3C)[nH]c2c1,,"human, CYP2C19 rapid metabolizers, plasma","oral, 40 mg/day, day 5",,2800 ± 2230 ng/mL
COc1ccc(-n2nc(C(N)=O)c3c2C(=O)N(c2ccc(N4CCCCC4=O)cc2)CC3)cc1,,"healthy human subjects, plasma","oral, 2.5 mg twice daily, day 4, steady state, geometric mean, added: rivaroxaban 10 mg once daily",,81 ng/mL
CC#CC(=O)N1CC[C@@H](n2c(=O)n(-c3ccc(Oc4ccccc4)cc3)c3c(N)ncnc32)C1,,"human, plasma","oral, 20 to 600 mg, dose escalation",,140 to 3300 nM
CCCCC1(CCCC)CN(c2ccccc2)c2cc(SC)c(OCC(=O)N[C@@H](C(=O)NCC(=O)O)c3ccccc3)cc2S(=O)(=O)C1,LC-MS/MS,"human, plasma","oral, 15 mg, single dose, before breakfast",,0.377 ng/mL
CN1CC(=O)N2[C@H](c3ccc4c(c3)OCO4)c3[nH]c4ccccc4c3C[C@@H]2C1=O,,human,"oral, 40 mg, fixed-dose combination, fasted, geometric mean, added: macitentan 10 mg",,469 ng/mL
O=C(c1ccc(OCCN2CCCCC2)cc1)c1c(-c2ccc(O[C@@H]3O[C@H](C(=O)O)[C@@H](O)[C@H](O)[C@H]3O)cc2)sc2cc(O)ccc12,,"human, plasma","oral, 60 mg raloxifene, baseline, with water",,139 nM
CC(C)[C@@H](CS(=O)(=O)C(C)C)N1C(=O)[C@@](C)(CC(=O)O)C[C@H](c2cccc(Cl)c2)[C@H]1c1ccc(Cl)cc1,,"human, plasma","oral, 60 mg, new tablet, fed, geometric LS mean",,442 ng/mL
CN1CC[C@H](c2c(O)cc(O)c3c(=O)cc(-c4ccccc4Cl)oc23)[C@H](O)C1,,"human advanced solid tumours, plasma","intravenous, 70 flavopiridol, added: oxaliplatin 85 + leucovorin/5-FU",,2230 ± 510 nM
C=CC(=O)N1C[C@H](Nc2ncnc3[nH]ccc23)CC[C@@H]1C,adjusted geometric mean,"human, plasma","oral, 50 mg single dose, without rifampicin",,272 ng/mL
